Published values from different studies.
Lines come from different studies, so protocols differ. ± gives the spread as reported.

SMILES = C[C@]12CC[C@H](OCC[18F])C[C@H]1CC[C@@H]1[C@@H]2CC[C@]2(C)[C@@H](c3ccc(=O)oc3)CC[C@]12O; test system = male BALB/c nude mice, HepG2 xenograft, kidney; conditions = intravenous, 7.4 MBq, 45 min; tissue uptake = 7.17 ± 0.34 %ID/g
SMILES = CCCC[C@H](NC(=O)CNC(=O)CNC(=O)CN1CCN(CC(=O)O)CCN(CC(=O)O)CCN(CC(=O)O)CC1)C(=O)N[C@H]1CC(=O)NCCCC[C@@H](C(N)=O)NC(=O)[C@H](Cc2c[nH]c3ccccc23)NC(=O)[C@H](CCCNC(=N)N)NC(=O)[C@@H](Cc2ccccc2)NC(=O)[C@H](Cc2c[nH]cn2)NC1=O [lead-203 labelled]; test = biodistribution; test system = C57 mice with B16/F1 melanoma, intestines; conditions = intravenous, 0.056 MBq, 2 h post-injection; tissue uptake = 1.25 ± 0.65 %ID
SMILES = COc1cc(C(=O)NCCOCCOCCOCCNC(=O)c2ccc([18F])nc2)ccc1NC(=O)C1NC(CC(C)(C)C)C(C#N)(c2ccc(Cl)cc2F)C1c1cccc(Cl)c1F (centres unmarked); test system = athymic male mice, HepG2 xenograft, small intestine; conditions = 2 h; tissue uptake = 5.77 ± 2.59 %ID/g
SMILES = CCCC[C@H](NC(=O)CN1CCC(NC(=O)CN2CCC(NC(=O)CN3CCN(CC(=O)O)CCN(CC(=O)O)CCN(CC(=O)O)CC3)CC2)CC1)C(=O)N[C@H]1CC(=O)NCCCC[C@@H](C(N)=O)NC(=O)[C@H](Cc2c[nH]c3ccccc23)NC(=O)[C@H](CCCNC(=N)N)NC(=O)[C@@H](Cc2ccccc2)NC(=O)[C@H](Cc2c[nH]cn2)NC1=O [gallium-68 labelled]; test system = C57BL/6J mice male B16-F10 tumour, lungs; conditions = 1 h post injection, unblocked; tissue uptake = 0.5 ± 0.1 %ID/g
SMILES = COc1ccc(C)cc1NC(=O)OC1CC2CCCC(C1)N2Cc1ccc(CC[18F])cc1 (centres unmarked); test system = BALB/c mice, EMT6 tumour, lung; conditions = 2 h; tissue uptake = 4.98 ± 0.27 %ID/g
SMILES = NC(=O)[C@@H](CCCCNC(=O)CNC(=O)CCC(=O)NCCc1c[nH]cn1)NC(=O)[C@@H](Cc1ccc(O)cc1)NC(=O)[C@@H](CCCCNC(=O)CNC(=O)CCC(=O)NCCc1c[nH]cn1)NC(=O)Cc1ccc(CN2CCN(CC(=O)O)CCN(CC(=O)O)CC2)cc1 [fluorine-18 labelled]; test system = tumour-bearing nude mice, bone; conditions = intravenous, 1.04 MBq, 1 h, no pretargeting; tissue uptake = 0.11 ± 0.02 %ID/g
SMILES = CCCC[C@H](NC(=O)CCOCCOCCNC(=O)CN1CCN(CC(=O)O)CCN(CC(=O)O)CCN(CC(=O)O)CC1)C(=O)N[C@H]1CC(=O)NCCCC[C@@H](C(N)=O)NC(=O)[C@H](Cc2c[nH]c3ccccc23)NC(=O)[C@H](CCCNC(=N)N)NC(=O)[C@@H](Cc2ccccc2)NC(=O)[C@H](Cc2c[nH]cn2)NC1=O [gallium-68 labelled]; test system = C57BL/6J mice male B16-F10 tumour, muscle; conditions = 1 h post injection, unblocked; tissue uptake = 0.1 %ID/g
SMILES = C[S]1CC[S]2CC[P](CO)(CO)[99Tc+]12.[C-]#[O+].[C-]#[O+].[C-]#[O+]; test system = CF-1 mice, female, urine; conditions = intravenous, 4 h; tissue uptake = 37.4 %ID

Some of these lines once more:
SMILES = CCCC[C@H](NC(=O)CN1CCC(NC(=O)CN2CCC(NC(=O)CN3CCN(CC(=O)O)CCN(CC(=O)O)CCN(CC(=O)O)CC3)CC2)CC1)C(=O)N[C@H]1CC(=O)NCCCC[C@@H](C(N)=O)NC(=O)[C@H](Cc2c[nH]c3ccccc23)NC(=O)[C@H](CCCNC(=N)N)NC(=O)[C@@H](Cc2ccccc2)NC(=O)[C@H](Cc2c[nH]cn2)NC1=O [gallium-68 labelled]; test system = C57BL/6J mice male B16-F10 tumour, lungs; conditions = 1 h post injection, unblocked; tissue uptake = 0.5 ± 0.1 %ID/g
